Assay results from different studies.
± gives the spread as reported.

`COC1CN([C@H]2CC[C@H]([C@@]3(C)Oc4c(Cl)cc(C(=O)NCc5c(SC)cc(C)[nH]c5=O)c(C)c4O3)CC2)C1` — result for “log2 fold change”: 0.342 (RNA-seq, refers to: SORCS2 mouse homolog; mouse, HT-1376 xenograft, whole blood; dose not given; relative to: vehicle).
`O=C(N/N=C/c1ccc2c(ccc[n+]2Cc2ccccc2)c1)N/N=C/c1ccc2c(ccc[n+]2Cc2ccccc2)c1` has a ΔTm of 5.7 ± 0.2 °C (myc22 MYC G4-DNA parallel; FRET melting; 1 µM, K1 buffer, DNA 0.2 µM, with: ds26 10 µM).
`CCCCNCCO.O=C(O)C(Cl)Cl` has an inhibition of 0% (Amaranthus retroflexus; herbicidal activity; 15 mg/mL, 21 days, post-emergence greenhouse).
`O=C(N/N=C/c1cc[n+](CC2CC2)c2ccccc12)c1cccc(C(=O)N/N=C/c2cc[n+](CC3CC3)c3ccccc23)c1` gave a ΔTm of 12.7 ± 0.3 °C (myc22 MYC G4-DNA parallel; FRET melting; 1 µM, K1 buffer, DNA 0.2 µM).
`CN1CCCNC(=O)c2cccc(c2)C(=O)NCCCN(C)CCCNc2cccc3c2C(=O)c2cccc(c2C3=O)NCCC1` — result for “log2 fold change”: -1.94 (SAS; RNA-Seq, refers to: TTC14 mRNA; 1 µM, 6 h; relative to: untreated cells).
`Cc1ncsc1-c1ccc(C(C)NC(=O)C2CC(O)CN2C(=O)C(NC(=O)CCCCCCCCCCN2CCCC(Nc3ncc(Cl)c(Nc4ccccc4S(=O)(=O)C(C)C)n3)C2)C(C)(C)C)cc1` (stereo not shown) — result for “log2 fold change”: -1.9 (22Rv1; RNA-seq, refers to: SPSB1 mRNA; concentration not given; relative to: DMSO).
`C=CC(=O)Nc1cccc(Cn2ncc3cnc(Nc4cnn(CCOC)c4)nc32)c1` — result for “percent of control”: 11% (PLK4 human; binding, KINOMEscan; 100 nM; lower = stronger binding).
For `Nc1ncc(-c2cc(-c3cnn(CC(F)(F)F)c3)ncc2F)nc1C(=O)NC1CNCC(F)C1` (stereo not shown), the remaining binding was 98% (AKT2; KINOMEscan; 1 µM; relative to: DMSO control).
With `CC[n+]1cccc2cc(/C=N/NC(=O)c3cc(C(=O)N/N=C/c4ccc5c(ccc[n+]5CC)c4)ncn3)ccc21` the ΔTm was 3.4 ± 0.3 °C (myc22 MYC G4-DNA parallel; FRET melting; 1 µM, K1 buffer, DNA 0.2 µM, with: ds26 10 µM).
With `CCN(CC)CC(=O)Nc1cccc(-n2cc(-c3ccc4ccc(-c5cn(-c6cccc(NC(=O)CN(CC)CC)c6)nn5)cc4c3)nn2)c1` the fold regulation was -1.11 (RCC4; PCR angiogenesis array, refers to: NRP1; 5 x IC50, 4 h, normoxia; relative to: untreated).
The amount of `COc1cc(O)ccc1CCC(c1ccc(O)cc1)c1cc2c(c(C)c1O)OC(c1ccc(O)cc1)CC2` (mixture of isomers) is reported as 30600 ± 15800 pg/mL blood (refers to: TXB2; human whole blood; 3 µM, with: Escherichia coli).
With `C[n+]1cc(NC(=O)c2ccc3ccc4ccc(C(=O)Nc5cc6ccccc6[n+](C)c5)nc4c3n2)cc2ccccc21` the delta Tm was > 40 °C (G-quadruplex DNA 22CTA antiparallel; UV melting; 6 µM, K10 buffer, with: DNA 3 µM).
`CNS(=O)(=O)Nc1nccc(Cc2c(C)c3ccc(Oc4ncccc4F)cc3oc2=O)c1F` has an IC50 of 115 nM (A4/Fuk; cell viability, CellTiter-Glo; 7 days).
The bacterial load of `C=C(NC(=O)c1csc(-c2nc3c(cc2O)-c2nc(cs2)C(=O)NC(C(C)O)C(=O)NC(=C(C)OC)c2nc(cs2)C(=O)NC2c4nc(cs4)C(=O)NC(COC(=O)c4c5c6c(cccc6n4O)COC(=O)C(OC4CC(C)(O)C(N(C)C)C(C)O4)C2OC5)c2nc-3cs2)n1)C(N)=O` (stereo not shown) is reported as 5.42 log CFU/g (Streptococcus pneumoniae; -25, immunocompromised mice, lung infection, lung; 4 mg/kg/day three times daily, 24 h post-dose).
For `C[n+]1ccc(/C=N/NC(=O)c2cccc(C(=O)N/N=C/c3cc[n+](C)c4ccccc34)c2)c2ccccc21`, the ΔTm was 12.5 ± 0.3 °C (myc22 MYC G4-DNA parallel; FRET melting; 1 µM, K1 buffer, DNA 0.2 µM).
For `C=CC(=O)N1[C@@H](c2ccc3c(c2)OCO3)c2[nH]c3ccccc3c2C[C@H]1C(=O)N1CCN(C)CC1`, the relative co-enrichment was 94% (human cyclin E1 wild type-3xFLAG:CDK2; co-IP with TMT proteomics, refers to: HNRNPH1; concentration not given, P31943; relative to: wild type DMSO).

Some of these lines once more:
`COC1CN([C@H]2CC[C@H]([C@@]3(C)Oc4c(Cl)cc(C(=O)NCc5c(SC)cc(C)[nH]c5=O)c(C)c4O3)CC2)C1` — result for “log2 fold change”: 0.342 (RNA-seq, refers to: SORCS2 mouse homolog; mouse, HT-1376 xenograft, whole blood; dose not given; relative to: vehicle).
`O=C(N/N=C/c1ccc2c(ccc[n+]2Cc2ccccc2)c1)N/N=C/c1ccc2c(ccc[n+]2Cc2ccccc2)c1` has a ΔTm of 5.7 ± 0.2 °C (myc22 MYC G4-DNA parallel; FRET melting; 1 µM, K1 buffer, DNA 0.2 µM, with: ds26 10 µM).
